Measurements collected from several papers.
Each numbered part is a random draw from the data of one study; scales do not carry over between parts.
Chain of UniProt P08913 (whole entry, looked up): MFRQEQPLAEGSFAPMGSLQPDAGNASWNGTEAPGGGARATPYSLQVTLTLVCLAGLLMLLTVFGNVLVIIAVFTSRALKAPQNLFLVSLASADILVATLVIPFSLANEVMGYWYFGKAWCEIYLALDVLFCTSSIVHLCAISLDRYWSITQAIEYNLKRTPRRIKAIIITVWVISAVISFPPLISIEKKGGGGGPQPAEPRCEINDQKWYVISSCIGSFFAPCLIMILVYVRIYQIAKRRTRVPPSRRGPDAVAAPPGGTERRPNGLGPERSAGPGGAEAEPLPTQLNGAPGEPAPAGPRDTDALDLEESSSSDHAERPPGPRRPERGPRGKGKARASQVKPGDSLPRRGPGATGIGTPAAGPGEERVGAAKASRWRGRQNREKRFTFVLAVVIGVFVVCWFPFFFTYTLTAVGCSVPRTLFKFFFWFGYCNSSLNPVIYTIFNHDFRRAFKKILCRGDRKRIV

Block 1 — method: two-hybrid; reference: out of 4 tests; reading: higher = firmer interaction
Partner: ARF22 498-598 (Arabidopsis thaliana, UniProt Q9C8N7)
B1: ARF19 948-1086 (Arabidopsis thaliana, UniProt Q8RYC8); chain GLWPNQTQRMRTYTKVQKRGSVGRSIDVTRYSGYDELRHDLARMFGIEGQLEDPLTSDWKLVYTDHENDILLVGDDPWEEFVNCVQNIKILSSVEVQQMSLDGDLAAIPTTNQACSETDSGNAWKVHYEDTSAAASFNR
B2: ARF1 538-665 (Arabidopsis thaliana, UniProt Q8L7G0); chain SRQIRSCTKVHMQGSAVGRAIDLTRSECYEDLFKKLEEMFDIKGELLESTKKWQVVYTDDEDDMMMVGDDPWNEFCGMVRKIFIYTPEEVKKLSPKNKLAVNARMQLKADAEENGNTEGRSSSMAGSR
B3: IAA33 (Arabidopsis thaliana, UniProt Q9FKM7); chain MNSFEPQSQDSLQRRFHQDNSTTQQPRDTTTPFIPKPASKNHNNSNSSSGAAGRSFQGFGLNVEDDLVSSVVPPVTVVLEGRSICQRISLDKHGSYQSLASALRQMFVDGADSTDDLDLSNAIPGHLIAYEDMENDLLLAGDLTWKDFVRVAKRIRILPVKGNTRQVKRNE
B4: IAA29 (Arabidopsis thaliana, UniProt Q93WC4); chain MELDLGLSLSPHKSSKLGFNFDLNKHCAIEGAASCLGTEKLRFEATFGLGNVEENCYMPKQRLFALNGQPNEEDEDPLESESSIVYDDEEENSEVVGWPPVKTCMIKYGSYHHRHIRNHHHCPYHHRGRRITAMNNNISNPTTATVGSSSSSSISSRSSMYVKVKMDGVAIARKVDIKLFNSYESLTNSLITMFTEYEDCDREDTNYTFTFQGKEGDWLLRGDVTWKIFAESVHRISIIRDRPCAYTRCLF
B5: IAA16 (Arabidopsis thaliana, UniProt O24407); chain MINFEATELRLGLPGGNHGGEMAGKNNGKRGFSETVDLKLNLSSTAMDSVSKVDLENMKEKVVKPPAKAQVVGWPPVRSFRKNVMSGQKPTTGDATEGNDKTSGSSGATSSASACATVAYVKVSMDGAPYLRKIDLKLYKTYQDLSNALSKMFSSFTIGNYGPQGMKDFMNESKLIDLLNGSDYVPTYEDKDGDWMLVGDVPWEMFVDSCKRIRIMKGSEAIGLAPRALEKCKNRS
B6: IAA19 (Arabidopsis thaliana, UniProt O24409); chain MEKEGLGLEITELRLGLPGRDVAEKMMKKRAFTEMNMTSSGSNSDQCESGVVSSGGDAEKVNDSPAAKSQVVGWPPVCSYRKKNSCKEASTTKVGLGYVKVSMDGVPYLRKMDLGSSQGYDDLAFALDKLFGFRGIGVALKDGDNCEYVTIYEDKDGDWMLAGDVPWGMFLESCKRLRIMKRSDATGFGLQPRGVDE
B7: ARF10 575-693 (Arabidopsis thaliana, UniProt Q9SKN5); chain LQGLETGHCKVFMESEDVGRTLDLSVIGSYQELYRKLAEMFHIEERSDLLTHVVYRDANGVIKRIGDEPFSDFMKATKRLTIKMDIGGDNVRKTWITGIRTGENGIDASTKTGPLSIFA
Residues (chain): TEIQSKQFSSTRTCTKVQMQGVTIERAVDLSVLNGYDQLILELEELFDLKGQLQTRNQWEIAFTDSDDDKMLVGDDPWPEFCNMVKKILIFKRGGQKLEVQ
The positive tests of `B1 (ARF19 948-1086)` is reported as 0.
With `B2 (ARF1 538-665)` the positive tests was 0.
With `B3 (IAA33)` the positive tests was 1.
The positive tests of `B4 (IAA29)` is reported as 1.
With `B5 (IAA16)` the positive tests was 3.
The positive tests of `B6 (IAA19)` is reported as 0.
The positive tests of `B7 (ARF10 575-693)` is reported as 0.

Block 2 — method: protein-binding microarray; molecule type: hairpin DNA; matrix: in vitro; concentration: not given; reference: not given; reading: higher = stronger binding; shared flanks, not repeated: GAGGCCTT … AAGGCCTCACACTCTTTCCCTACACG
Target: Signal transducer and activator of transcription 1-alpha/beta, full length (STAT1, Homo sapiens, UniProt P42224, residues 1-750)
Chain of UniProt P42224 (whole entry, looked up): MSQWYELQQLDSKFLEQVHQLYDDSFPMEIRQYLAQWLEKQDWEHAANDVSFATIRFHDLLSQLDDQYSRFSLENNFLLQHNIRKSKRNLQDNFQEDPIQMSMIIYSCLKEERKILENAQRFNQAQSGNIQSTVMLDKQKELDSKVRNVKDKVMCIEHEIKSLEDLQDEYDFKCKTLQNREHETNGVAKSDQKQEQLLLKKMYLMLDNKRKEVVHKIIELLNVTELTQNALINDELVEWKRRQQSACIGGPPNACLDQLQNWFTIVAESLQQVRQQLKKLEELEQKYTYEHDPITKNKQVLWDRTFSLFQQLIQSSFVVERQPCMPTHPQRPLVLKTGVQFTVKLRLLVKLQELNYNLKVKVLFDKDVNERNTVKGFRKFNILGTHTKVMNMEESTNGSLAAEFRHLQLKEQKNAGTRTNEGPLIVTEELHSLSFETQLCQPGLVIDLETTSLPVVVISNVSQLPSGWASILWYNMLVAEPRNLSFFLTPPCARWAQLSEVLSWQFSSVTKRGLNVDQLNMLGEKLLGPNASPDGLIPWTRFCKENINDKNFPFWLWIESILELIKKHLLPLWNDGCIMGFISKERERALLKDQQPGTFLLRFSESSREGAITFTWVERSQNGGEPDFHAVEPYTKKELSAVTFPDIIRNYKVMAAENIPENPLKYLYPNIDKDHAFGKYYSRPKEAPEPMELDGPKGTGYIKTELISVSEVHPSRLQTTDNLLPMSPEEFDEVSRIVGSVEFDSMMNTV
Setting: whole hairpin DNA, median over replicate spots
For `CGCCGGAAGCCTCCTGGCTTCCGGCG (5mC at 33)`, the median fluorescence was 1220 a.u.
For `TCCCGGAGGCCTCCTGGCCTCCGGGA`, the median fluorescence was 1440 a.u.
The median fluorescence of `TCCCCGAAGCCTCCTGGCTTCGGGGA (5mC at 12)` is reported as 2190 a.u.
`TCGCGGAAGCCTCCTGGCTTCCGCGA (5mC at 10 32)` gave a median fluorescence of 1360 a.u.
With `TCCCGTAAGCCTCCTGGCTTACGGGA` the median fluorescence was 4770 a.u.
For `TGCCGGAAGCCTCCTGGCTTCCGGCA (5mC at 33)`, the median fluorescence was 1270 a.u.
`TCCGGGAAGCCTCCTGGCTTCCCGGA (5mC at 31)` has a median fluorescence of 4530 a.u.
With `TCTCGGAAGCCTCCTGGCTTCCGAGA` the median fluorescence was 4930 a.u.

Block 3 — method: RNAcompete; molecule type: RNA; matrix: in vitro; concentration: 20 nM; setting: 7-mer, probes averaged, single round; reference: mean of 7-mers; reading: higher = stronger binding
Target: PABPC1L2, full length, GST fusion (mouse, UniProt A0ABA7IW68)
Construct (chain): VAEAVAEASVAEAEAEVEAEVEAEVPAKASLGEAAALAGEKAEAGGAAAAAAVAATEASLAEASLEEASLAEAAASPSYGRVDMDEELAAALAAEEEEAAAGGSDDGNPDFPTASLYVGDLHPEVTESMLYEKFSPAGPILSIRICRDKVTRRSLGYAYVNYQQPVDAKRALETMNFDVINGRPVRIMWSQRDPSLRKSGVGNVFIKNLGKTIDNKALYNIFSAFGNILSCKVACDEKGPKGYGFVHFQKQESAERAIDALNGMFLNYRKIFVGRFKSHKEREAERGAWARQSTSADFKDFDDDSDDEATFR
The 7-mer Z-score of `GUCUGUA` is reported as -0.237.
With `UUAGCCC` the 7-mer Z-score was -0.333.
The 7-mer Z-score of `GUAUGAC` is reported as -0.17.
The 7-mer Z-score of `GUAAAUA` is reported as 1.02.
`AAAUGAG` has a 7-mer Z-score of 1.15.
The 7-mer Z-score of `ACUGGCC` is reported as -0.175.
The 7-mer Z-score of `UGGACUA` is reported as 0.108.
For `UCUGACG`, the 7-mer Z-score was -0.349.

Other studies, line by line
The inhibition of `C[C@H](NC(=O)c1cnc2n1[C@](C)(Cc1ccc(C#N)cc1)C(=O)N2c1cc(Cl)c(F)c(Cl)c1)C(=O)NC1(c2ccccn2)CC1` is reported as -16.7% (Alpha-2A adrenergic receptor (ADRA2A, Homo sapiens, UniProt P08913); binding, radioligand binding; 10 µM).

For quick reference, copied from above (block 2):
For `TCCCGGAGGCCTCCTGGCCTCCGGGA`, the median fluorescence was 1440 a.u.
The median fluorescence of `TCCCCGAAGCCTCCTGGCTTCGGGGA (5mC at 12)` is reported as 2190 a.u.
